Results of several laboratories.
Lines come from different studies, so protocols differ.
ABL1 F317L non-phosphorylated: Tyrosine-protein kinase ABL1, non-phosphorylated (ABL1, Homo sapiens, UniProt P00519, F317L)
Sequence of UniProt P37231 (whole entry, looked up): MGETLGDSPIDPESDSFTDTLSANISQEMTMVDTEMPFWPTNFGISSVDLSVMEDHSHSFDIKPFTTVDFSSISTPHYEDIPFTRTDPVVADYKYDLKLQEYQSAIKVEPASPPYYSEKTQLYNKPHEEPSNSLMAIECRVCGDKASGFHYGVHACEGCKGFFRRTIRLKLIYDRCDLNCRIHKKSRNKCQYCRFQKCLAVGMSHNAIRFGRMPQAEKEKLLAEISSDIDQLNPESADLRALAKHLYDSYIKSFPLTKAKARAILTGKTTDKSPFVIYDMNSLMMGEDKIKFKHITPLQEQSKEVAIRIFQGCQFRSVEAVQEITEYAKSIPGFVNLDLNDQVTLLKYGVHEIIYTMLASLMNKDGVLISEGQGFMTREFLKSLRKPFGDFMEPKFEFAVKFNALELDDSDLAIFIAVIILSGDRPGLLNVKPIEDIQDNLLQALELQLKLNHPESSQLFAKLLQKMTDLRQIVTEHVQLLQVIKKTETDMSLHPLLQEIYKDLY
Sequence of UniProt P10721 (whole entry, unmodified, looked up): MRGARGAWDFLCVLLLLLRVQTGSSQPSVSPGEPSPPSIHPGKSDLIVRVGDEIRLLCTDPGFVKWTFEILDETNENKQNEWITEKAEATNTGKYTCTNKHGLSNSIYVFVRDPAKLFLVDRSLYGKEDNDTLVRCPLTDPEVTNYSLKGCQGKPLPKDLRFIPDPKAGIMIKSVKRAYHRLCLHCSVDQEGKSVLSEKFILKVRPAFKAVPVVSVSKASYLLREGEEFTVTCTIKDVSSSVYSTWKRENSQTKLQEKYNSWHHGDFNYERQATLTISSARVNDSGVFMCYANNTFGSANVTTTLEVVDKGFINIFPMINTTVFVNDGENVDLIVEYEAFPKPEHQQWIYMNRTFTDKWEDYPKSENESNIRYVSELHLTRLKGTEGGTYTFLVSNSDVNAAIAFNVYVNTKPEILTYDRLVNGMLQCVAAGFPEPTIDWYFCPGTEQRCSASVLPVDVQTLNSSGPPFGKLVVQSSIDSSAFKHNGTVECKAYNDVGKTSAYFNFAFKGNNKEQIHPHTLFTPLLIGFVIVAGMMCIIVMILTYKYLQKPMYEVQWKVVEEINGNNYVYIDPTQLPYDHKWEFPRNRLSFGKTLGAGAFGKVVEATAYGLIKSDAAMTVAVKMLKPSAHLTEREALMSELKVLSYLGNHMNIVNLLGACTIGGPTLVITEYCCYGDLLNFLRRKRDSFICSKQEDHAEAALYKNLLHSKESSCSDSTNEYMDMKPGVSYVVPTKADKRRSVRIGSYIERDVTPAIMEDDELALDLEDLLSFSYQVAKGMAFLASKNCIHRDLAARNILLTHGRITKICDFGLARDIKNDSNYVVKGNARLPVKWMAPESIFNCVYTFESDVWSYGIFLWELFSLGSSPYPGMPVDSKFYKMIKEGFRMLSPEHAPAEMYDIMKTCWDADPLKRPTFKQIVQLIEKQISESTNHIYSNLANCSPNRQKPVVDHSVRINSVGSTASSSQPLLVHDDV
Sequence of UniProt O75116 (whole entry, looked up): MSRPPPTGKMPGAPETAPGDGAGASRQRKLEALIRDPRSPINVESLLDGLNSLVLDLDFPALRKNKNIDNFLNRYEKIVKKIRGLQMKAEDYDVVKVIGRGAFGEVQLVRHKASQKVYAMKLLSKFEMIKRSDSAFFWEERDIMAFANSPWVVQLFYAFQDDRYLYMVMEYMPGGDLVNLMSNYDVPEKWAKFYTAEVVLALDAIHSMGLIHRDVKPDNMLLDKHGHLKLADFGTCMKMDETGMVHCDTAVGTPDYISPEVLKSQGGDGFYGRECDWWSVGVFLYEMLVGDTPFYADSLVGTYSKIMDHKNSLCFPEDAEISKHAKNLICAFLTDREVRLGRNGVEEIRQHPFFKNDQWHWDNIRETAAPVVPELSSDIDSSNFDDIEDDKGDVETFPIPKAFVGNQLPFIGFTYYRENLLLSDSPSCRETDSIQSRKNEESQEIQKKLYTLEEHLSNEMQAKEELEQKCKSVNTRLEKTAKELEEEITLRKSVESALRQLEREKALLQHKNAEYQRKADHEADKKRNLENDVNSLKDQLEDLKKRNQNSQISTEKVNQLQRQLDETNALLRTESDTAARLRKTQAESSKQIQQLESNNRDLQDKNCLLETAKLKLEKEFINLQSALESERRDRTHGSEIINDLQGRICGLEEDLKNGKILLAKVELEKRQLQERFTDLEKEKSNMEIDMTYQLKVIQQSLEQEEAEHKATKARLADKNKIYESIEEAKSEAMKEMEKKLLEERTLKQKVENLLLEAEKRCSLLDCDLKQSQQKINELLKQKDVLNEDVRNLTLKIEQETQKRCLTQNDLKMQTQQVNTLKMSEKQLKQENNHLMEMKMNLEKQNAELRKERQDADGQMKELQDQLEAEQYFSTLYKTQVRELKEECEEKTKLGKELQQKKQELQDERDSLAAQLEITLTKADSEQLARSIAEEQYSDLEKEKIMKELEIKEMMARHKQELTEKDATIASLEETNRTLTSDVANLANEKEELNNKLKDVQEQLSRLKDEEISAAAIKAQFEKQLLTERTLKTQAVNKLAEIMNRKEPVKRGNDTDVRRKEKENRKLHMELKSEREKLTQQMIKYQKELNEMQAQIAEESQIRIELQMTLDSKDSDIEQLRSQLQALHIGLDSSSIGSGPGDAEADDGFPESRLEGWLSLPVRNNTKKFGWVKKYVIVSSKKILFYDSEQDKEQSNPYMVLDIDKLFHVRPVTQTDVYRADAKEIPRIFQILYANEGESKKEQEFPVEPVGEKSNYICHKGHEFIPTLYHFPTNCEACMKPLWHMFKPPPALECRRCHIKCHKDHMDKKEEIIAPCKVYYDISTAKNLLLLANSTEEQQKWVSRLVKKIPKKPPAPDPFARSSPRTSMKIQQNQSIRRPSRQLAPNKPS
Sequence of UniProt P55201 (whole entry, looked up): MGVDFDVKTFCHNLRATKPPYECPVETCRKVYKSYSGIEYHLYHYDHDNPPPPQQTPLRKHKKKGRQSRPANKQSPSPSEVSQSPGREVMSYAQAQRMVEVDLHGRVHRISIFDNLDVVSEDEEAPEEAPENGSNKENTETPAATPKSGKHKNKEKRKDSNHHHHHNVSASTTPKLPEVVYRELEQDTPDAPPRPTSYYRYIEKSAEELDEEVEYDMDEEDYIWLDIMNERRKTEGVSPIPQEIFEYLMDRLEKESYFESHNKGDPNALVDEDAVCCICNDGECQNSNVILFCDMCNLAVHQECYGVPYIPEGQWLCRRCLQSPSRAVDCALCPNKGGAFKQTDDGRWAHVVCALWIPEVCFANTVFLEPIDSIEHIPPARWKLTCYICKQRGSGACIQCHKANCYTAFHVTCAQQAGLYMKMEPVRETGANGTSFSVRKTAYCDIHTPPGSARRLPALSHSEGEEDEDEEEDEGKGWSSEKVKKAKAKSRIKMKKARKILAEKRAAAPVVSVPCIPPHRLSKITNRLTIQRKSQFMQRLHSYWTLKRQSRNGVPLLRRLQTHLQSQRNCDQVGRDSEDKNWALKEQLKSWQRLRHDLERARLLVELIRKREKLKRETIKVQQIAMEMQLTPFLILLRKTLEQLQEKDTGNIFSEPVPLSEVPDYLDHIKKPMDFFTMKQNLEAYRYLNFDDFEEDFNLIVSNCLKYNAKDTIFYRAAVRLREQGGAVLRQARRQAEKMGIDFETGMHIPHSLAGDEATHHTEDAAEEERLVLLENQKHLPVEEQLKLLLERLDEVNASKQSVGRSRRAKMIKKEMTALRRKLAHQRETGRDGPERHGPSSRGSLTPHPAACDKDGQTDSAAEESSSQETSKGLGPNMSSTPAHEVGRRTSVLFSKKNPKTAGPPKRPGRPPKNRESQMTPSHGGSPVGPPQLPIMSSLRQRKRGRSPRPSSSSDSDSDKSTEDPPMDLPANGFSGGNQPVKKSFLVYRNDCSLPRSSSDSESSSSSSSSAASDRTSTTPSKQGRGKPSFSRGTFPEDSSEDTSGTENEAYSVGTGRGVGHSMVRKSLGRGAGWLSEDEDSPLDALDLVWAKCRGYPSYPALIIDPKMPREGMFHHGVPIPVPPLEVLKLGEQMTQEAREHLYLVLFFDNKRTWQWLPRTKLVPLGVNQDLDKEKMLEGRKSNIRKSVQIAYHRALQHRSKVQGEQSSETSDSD
Sequence of UniProt P49674 (whole entry, looked up): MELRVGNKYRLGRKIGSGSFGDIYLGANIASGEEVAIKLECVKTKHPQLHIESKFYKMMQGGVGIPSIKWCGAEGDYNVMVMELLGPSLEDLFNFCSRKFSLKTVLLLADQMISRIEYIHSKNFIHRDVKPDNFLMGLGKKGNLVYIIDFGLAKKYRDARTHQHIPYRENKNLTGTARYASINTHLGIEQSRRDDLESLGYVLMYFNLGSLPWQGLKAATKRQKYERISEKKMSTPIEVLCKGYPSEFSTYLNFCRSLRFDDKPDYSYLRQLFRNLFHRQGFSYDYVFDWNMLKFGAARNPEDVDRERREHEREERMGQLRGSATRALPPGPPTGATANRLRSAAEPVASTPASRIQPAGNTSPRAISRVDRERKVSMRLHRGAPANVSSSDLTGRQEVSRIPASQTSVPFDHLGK

SMILES | target or system | test | test system | conditions | how to read | measurement | value
Cc1nn(-c2cccc(N)c2)c(=O)c2cnc(Nc3ccc(N4CCNCC4)cc3)nc12 | Rho-associated protein kinase 2 (ROCK2, Homo sapiens, UniProt O75116) | enzyme activity, inhibitor | – | – | – | IC50 | > 10 µM
COC1CN([C@H]2CC[C@H]([C@@]3(C)Oc4c(Cl)cc(C(=O)NCc5c(SC)cc(C)[nH]c5=O)c(C)c4O3)CC2)C1 | – | RNA-seq, item: EPOP | human, whole blood | dose not given, 24 h | baseline: pretreatment baseline | log2 fold change | 1.28
COc1cc(Nc2nccc(-c3cnn4nc(OC)ccc34)n2)cc(C(F)(F)F)c1 | Mast/stem cell growth factor receptor Kit (KIT, Homo sapiens, UniProt P10721, A829P) | binding | – | 1 µM | – | remaining binding | 77%
Cn1cc(-c2cc(N3CCCCS3(=O)=O)ccc2N[C@H]2CC[C@H](C)CC2)c2cc[nH]c2c1=O (stereo in doubt) | Bromodomain and WD repeat-containing protein 1, BD2 (BRWD1, Homo sapiens, UniProt Q9NSI6) | binding, competition with immobilised ligand | – | 1 µM | – | remaining binding | 92%
CC(=O)N1c2ccc(-c3ccc(CNC(=O)c4cn5cc(-c6cnc(N)nc6)nc(N6CCOCC6)c5n4)cc3)cc2CC[C@@H]1C | Peregrin (BRPF1, Homo sapiens, UniProt P55201) | binding, competition with immobilised ligand | – | 10 µM | – | remaining binding | 86%
C=CC(=O)N1CCc2ccc(-n3c(=O)ccc4cnc5ccc(-c6cnn(C)c6)cc5c43)cc21 | ABL1 F317L non-phosphorylated | KINOMEscan, item: (F317L)-nonphosphorylated | – | 1 µM | baseline: control | remaining binding | 99%
Nc1ncc2c(n1)-c1c([nH]c3ccc(C4=CCOCC4)cc13)CCC2 | Tyrosine-protein kinase ABL1, phosphorylated (ABL1, Homo sapiens, UniProt P00519, Y253F) | binding, competition with immobilised ligand | – | 1 µM | – | remaining binding | 97%
CCN1CCN(Cc2ccc(C(=O)Nc3ccc(C)c(NCc4cnc5[nH]ccc5c4OC)c3)cc2C(F)(F)F)CC1 | ABL1 F317L non-phosphorylated | binding, competition with immobilised ligand | – | 1 µM | – | remaining binding | 4.2%
Cc1cnc2nc1Nc1cccc(c1)COC/C=C/COCc1cc(ccc1OCCN1CCOCC1)N2 | Epidermal growth factor receptor (EGFR, Homo sapiens, UniProt P00533, T790M) | binding | – | 0.1 µM | – | remaining binding | 100%
CNC(=O)C1CCN(c2cc(C)c(F)cc2NC(=O)c2ccc(-c3cc(O)ccc3C)c(C)c2)CC1 | Tyrosine-protein kinase ABL1, non-phosphorylated (ABL1, Homo sapiens, UniProt P00519, Q252H) | binding, competition with immobilised ligand | – | 1 µM | – | remaining binding | 39%
Cc1cccc([C@H](C)NC(=O)c2ccc3c(Cc4cccc(OC(C)(C)C(=O)O)c4)c(C)n(C)c3c2)c1 | Peroxisome proliferator-activated receptor gamma, ligand-binding domain (PPARG, Homo sapiens, UniProt P37231) | reporter gene, luciferase reporter | HEK293T, Gal4-PPARγ LBD | – | – | IC50 | 8.3 µM
O=C(Nc1cnccc1-c1ccc([18F])cc1)c1ccnc(NC(=O)C2CC2)c1 | – | PET imaging | FVB/NJ mice, both sexes, brain | intravenous, 120 min post-injection, P-gp inhibited, together with: tariquidar 15 mg/kg iv, 2 h before | – | SUV | 0.21
Cc1c(Cc2ccc(F)c(OC(C)C(=O)O)c2)c2ccc(C(=O)NC(C)c3ccc(C(C)(C)C)cc3)cc2n1CC1CCC1 (stereo not drawn) | Peroxisome proliferator-activated receptor gamma (PPARG, Homo sapiens, UniProt P37231) | ligand displacement, TR-FRET | – | – | – | IC50 | 0.00096 µM
C=CC(=O)N1CCCC(n2c(=O)c3ncccc3n(Cc3ccc(Oc4ccccc4)cc3)c2=O)C1 (stereo not drawn) | Tyrosine-protein kinase ABL1, non-phosphorylated (ABL1, Homo sapiens, UniProt P00519) | cell-free assay, competition with immobilised ligand | – | 1 µM | – | remaining binding | 86%
Cc1cc(NC(=O)[C@H](O)c2cc(F)cc(F)c2)ccc1-c1cnc(N)c(C(=O)NC(C)C)c1 | Casein kinase I isoform epsilon (CSNK1E, Homo sapiens, UniProt P49674) | binding, competition with immobilised ligand | – | 0.1 µM | – | remaining binding | 86%
